Published values pooled from the literature.
Compare with care: the assays were run in different laboratories.
Organism: Hepatitis C virus

Structure (SMILES)	assay	system	conditions	endpoint	value
O=C(O)/C=C/c1ccc(NC(=O)C2(NC(=O)c3ccc4c(C5CCCCC5)c5n(c4c3)CC(=O)Nc3ccccc3-5)CCCC2)cc1	viral replication, inhibitor	Huh-7, GETYPE1A	replicon	EC50	10 nM
CC[C@@H](N)c1ccc(Cl)c(Oc2ccccc2)c1F	viral replication, luciferase replicon	Huh-7 subgenomic replicon, genotype 1b	72 h	EC50	inactive
Cc1ccc(N2C(=O)C=CC2=O)c(Br)c1	viral replication, inhibitor, luciferase	Huh7.5	72 h, replicon	EC50	> 100000 nM
OCc1nc(-c2cnc(N3CCC(Oc4ccccc4C(F)(F)F)CC3)s2)no1	viral replication, inhibitor, qPCR	Huh-7, GETYPE1B	96 h, replicon	EC50	62 nM
Cc1ccc(S(=O)(=O)Nn2c3c(cc(-c4nc5ccccc5s4)c2=O)CCCCCC3)cc1	viral replication, qRT-PCR	Huh7.5 cells, genotype 4 ED-43/SG-Feo	non-toxic concentration	reduction	30%
N#C/C(=C\c1ccc(O)c(O)c1)C(=O)c1ccc(O)c(O)c1	viral replication, inhibitor, luciferase	Huh7.5	72 h, replicon	IC50	18000 nM
COc1ccc2c(c1)C=C(C(=O)N1C[C@@H](C)O[C@@H](C)C1)Cn1c-2c(C2CCCCC2)c2ccc(C(=O)NS(=O)(=O)N(C)C)cc21	viral replication, inhibitor	Huh-7, GETYPE1A	replicon	EC50	40 nM
CC(=O)O[C@@H]1[C@@H](OC(C)=O)[C@H](Sc2sc(C(=O)c3ccc(Br)cc3)c(N)c2-c2nc3ccccc3s2)OC[C@H]1OC(C)=O	–	Huh7.5, genotype 4	non-toxic dose NG, mean over three titres	viral reduction	66.7%
NCc1ccc(F)c(Oc2ccccc2)c1F	viral replication, luciferase replicon	Huh-7 subgenomic replicon, genotype 1b	72 h	EC50	inactive
Cc1ccc2nc(-c3ccc(N=NNc4ccc(-c5nc6ccc(C)c(S(=O)(=O)O)c6s5)cc4)cc3)sc2c1S(=O)(=O)O	viral replication, inhibitor, luciferase	Huh7.5	72 h, replicon	IC50	> 100000 nM
Cc1ccc(S(=O)(=O)Nn2c3c(cc(-c4nc5ccccc5s4)c2=O)CCCC3)cc1	viral replication, qRT-PCR	Huh7.5 cells, genotype 4 ED-43/SG-Feo	non-toxic concentration	reduction	23.3%

Repeated from above:
Structure (SMILES)	assay	system	conditions	endpoint	value
Cc1ccc2nc(-c3ccc(N=NNc4ccc(-c5nc6ccc(C)c(S(=O)(=O)O)c6s5)cc4)cc3)sc2c1S(=O)(=O)O	viral replication, inhibitor, luciferase	Huh7.5	72 h, replicon	IC50	> 100000 nM
